# Measurements collected from several papers.
# Each numbered part is a random draw from the data of one study; scales do not carry over between parts.

# Block 1
# Target: Myc proto-oncogene protein, bHLH-zipper, MAX partner unstated (MYC, Homo sapiens, UniProt P01106, residues 368-449)
# UniProt P01106, sequence (368-449, looked up): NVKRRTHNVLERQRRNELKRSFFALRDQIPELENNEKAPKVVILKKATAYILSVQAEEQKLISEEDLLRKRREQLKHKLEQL
# Method: protein-binding microarray
# Molecule type: double-stranded DNA, one strand shown
# Matrix: in vitro
# Tested at: not given
# Setting: k-mer, scored over probes, only values ≥0.25
# Reading: higher = stronger binding
Sequence,E-score
CACGCTGA,0.357
ATCCCACG,0.339
CGCCTCAC,0.263
CATGGCAC,0.388
CATGTGCG,0.477
AGTCATGC,0.319
CACGGTGG,0.281
GCCATGTA,0.267
AAGCATGT,0.412

# Block 2
# Target: Hepatocyte nuclear factor 3-alpha (Foxa1, Mus musculus, UniProt P35582, residues 1-468, full length assumed)
# UniProt P35582, sequence (whole entry, looked up): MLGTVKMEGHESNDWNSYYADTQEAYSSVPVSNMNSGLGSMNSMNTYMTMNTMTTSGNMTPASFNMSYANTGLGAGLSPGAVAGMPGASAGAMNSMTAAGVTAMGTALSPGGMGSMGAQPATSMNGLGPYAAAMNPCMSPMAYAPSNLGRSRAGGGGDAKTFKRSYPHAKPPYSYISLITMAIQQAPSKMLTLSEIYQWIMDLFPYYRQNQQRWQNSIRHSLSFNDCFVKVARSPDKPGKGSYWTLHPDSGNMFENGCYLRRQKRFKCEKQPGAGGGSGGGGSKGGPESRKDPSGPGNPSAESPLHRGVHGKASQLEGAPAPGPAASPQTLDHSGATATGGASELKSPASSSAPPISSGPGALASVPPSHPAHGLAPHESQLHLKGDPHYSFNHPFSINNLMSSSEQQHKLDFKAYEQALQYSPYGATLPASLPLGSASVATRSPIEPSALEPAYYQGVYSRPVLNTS
# Method: EMSA with sequencing
# Molecule type: double-stranded DNA, one strand shown
# Matrix: in vitro
# Tested at: 10 and 20 nM
# Setting: whole designed probe, mean of two concentrations, ends assumed
# Baseline: negative control set to 0
# Reading: higher = stronger binding
Sequence,normalised bound fraction [ratio]
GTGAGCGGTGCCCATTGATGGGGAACAATCCAGCTACCTATCTTCAGTTCCTTGGCCTTCAGCTGGCAGTGAAACAGACACATCAGCTTTAAGACTGGCAGCCAAATAGTTAACGATCTGTAAACATACATAGAGAGTTCCTGTTCAAACATTACGCAAGAGACTGGATGAAAGCCCTTCCATAAAGAACCCTTTAGGTGATGATGCTAAAATTATTTTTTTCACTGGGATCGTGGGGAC,0.254
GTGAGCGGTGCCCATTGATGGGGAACGTCAATTACGTGGGAAATAAAGATAAGGCAAATGCACTTGGTTCTCTGAACTATTCTGACATTAGAAGAAATGCCAAGTCTGGAGATATCTGCTGTTTACATTTCACAATAACCTAATCATGCATTTGCAGCTTTCTGGAGCAAAACACTAACTGTTCTCCAAACAGCCACCTGACAATCTAAGGCTGAAACATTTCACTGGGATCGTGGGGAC,0.331
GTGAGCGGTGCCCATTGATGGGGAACAGGAAATGAGGGGTGAGAAGAGGAGTGCAGGTTCCAGCTTCAGGGAGGAATCCTTGGCATTTACATAGCAAACAACACCCAGGTGAGGCGGTGTGTCAACAAGGCCCAGCTCAACAGCTCCCAAGTCTCAGCATATTTTAAATGTTTGCCACATGCCAGACATTAATATTTTAACGGCTGCACGTCCGTGGCATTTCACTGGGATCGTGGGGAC,0.28
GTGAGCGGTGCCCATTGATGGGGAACCACTCATAGTCTTGCTATCCTTCATATACAGAGATGACCCTCCCAAGCCTAAAATCAACAGGGGGAGGCATAGAGCTGTCCTTCTGGCTCTAAAGATTGCTTTACCATCATCCACGCCCATTCTTAGTCCAGCATGTGAGAGCCAGTGTGAAGTGAGCAGAATATGGCATAAGTATGGAGTCATACATCCTTATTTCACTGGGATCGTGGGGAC,0.0287
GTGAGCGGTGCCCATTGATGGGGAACGTAGCCTTTTTCAGATTTCATCAAATATGGTGTTAGGGGGCCCTCATTTGTCCACAAAAAATATGGTGACAAGGGATGATGAGCTGAGTCAGAGTAAACACCATTTACTCACTTTGCGTCACTGTTTATTAGAAGGGCTGTTCGGACTTTCTAGTTGCCAAACTGGACCGTGTATGCTCTCTGAAGAGCGGGCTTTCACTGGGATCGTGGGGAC,0.164

# Block 3
# Target: Histone acetyltransferase KAT6A, both winged helices, GST fusion (KAT6A, Homo sapiens, UniProt Q92794, residues 1-181)
# Method: protein binding microarray
# Molecule type: double-stranded DNA, one strand shown
# Matrix: in vitro
# Tested at: not given
# Setting: 8-mer, flanks averaged, mean of 2 arrays, mostly near background
# Baseline: not given
# Reading: higher = stronger binding
# Construct (chain): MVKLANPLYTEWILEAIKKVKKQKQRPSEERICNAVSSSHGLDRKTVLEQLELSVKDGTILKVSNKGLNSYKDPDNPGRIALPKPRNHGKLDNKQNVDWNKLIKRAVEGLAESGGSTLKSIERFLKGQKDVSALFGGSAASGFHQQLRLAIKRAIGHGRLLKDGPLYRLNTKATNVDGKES
Sequence,E-score
ACTAGTGG,-0.211
GGTCACGA,-0.0877
GAAAAATC,-0.102
CCGACGCG,0.371
AAAGAGTT,-0.168
CTCAGAAC,0.0268
ATTTCTAA,0.0155
CGGTGCCC,0.137
GAGTACCC,0.00344
CTGTCTAA,-0.132
ATGGTCGC,0.165
GCGGTACC,0.278
CAAAATGC,-0.00406

# Mixed results
Substance,target,assay,system,conditions,scale,measurement,value
"PhoQ, residues 284 288 289 292 302 303 ALSMDL","PhoP, residues 12 14 15 18 19 LQHIR (Escherichia coli, UniProt P23836)","Sort-seq, refers to: YFP reporter",E. coli,"PhoQ-PhoP variant library, together with: 10 µM Mg2+","baseline: high Mg2+ state, higher = stronger signaling",fold induction,10

# Some of these lines once more (block 3):
Sequence,E-score
CCGACGCG,0.371
AAAGAGTT,-0.168
CTCAGAAC,0.0268
ATTTCTAA,0.0155
